{"data": "Assay results gathered from unrelated publications", "target": "calf thymus DNA", "note": "Numbers after ± are the reported error."}
{"SMILES": "CCN(CC)CCCC(C)Nc1cc[n+]([Ru-]([OH2+])[OH2+])c2cc(Cl)ccc12.Cc1ccc(C(C)C)cc1.F[B-](F)(F)F.F[B-](F)(F)F (stereo not shown)", "assay": "thermal denaturation", "setting": "0.5 equivalents per DNA, 1 h, pH 7.39, 25 °C, 25 mM NaClO4", "endpoint": "delta Tm", "result": "4.8 °C"}
{"SMILES": "[C-]#[O+].[C-]#[O+].[C-]#[O+].[C-]#[O+].[C-]#[O+].[C-]#[O+].[Cl-].[Cl-].[Re+].[Re+].c1cnc(-c2ncccn2)nc1", "assay": "ethidium bromide displacement", "endpoint": "Stern-Volmer constant", "result": "23000 M⁻¹"}
{"SMILES": "CC1=[N+]2N=C(c3ccccc3)[O][Pd-2]2([Cl])[O+]=C2Oc3ccccc3C=C21 (stereo not shown)", "assay": "UV-visible absorption titration", "setting": "concentration not given, pH 7.2", "endpoint": "hypochromism", "result": "12.7%"}
{"SMILES": "CCCCCC(C)NCC(=O)O (stereo not shown)", "assay": "ethidium bromide displacement fluorescence", "setting": "room temperature", "endpoint": "bimolecular quenching rate constant", "result": "2.8e+10 M⁻¹ s⁻¹"}
{"SMILES": "Cc1ccc(C(C)C)cc1.[Cl-].[Cl][Ru+].[Ru+].c1ccc(-c2cn(CCCCOc3ccccc3-c3nc4ccccc4s3)nn2)nc1", "assay": "ethidium bromide displacement", "endpoint": "Stern-Volmer constant", "result": "10000 M⁻¹"}
{"SMILES": "CCN(CC)CCCC(C)Nc1cc[n+]([Ru-]([Cl])[Cl])c2cc(Cl)ccc12.c1ccccc1 (stereo not shown)", "assay": "thermal denaturation", "setting": "0.5 equivalents per DNA, 1 h, pH 7.39, 25 °C, 50 mM NaClO4", "endpoint": "delta Tm", "result": "3.5 °C"}
{"SMILES": "Cc1c(C)c(C)[c-](C)c1C.[C-]#[O+].[C-]#[O+].[C-]#[O+].[Cl-].[Cl-].[Cl-].[Ir+3].[Re+].c1cnc(-c2ncccn2)nc1", "setting": "concentration not given", "endpoint": "number of binding sites", "result": 0.97}
{"SMILES": "CCCNCC(=O)O", "assay": "ethidium bromide displacement fluorescence", "setting": "room temperature", "endpoint": "Stern-Volmer constant", "result": "420 M⁻¹"}
{"SMILES": "NC1=N[N+](=Cc2c3ccccc3cc3ccccc23)[Ga-3]23([S]1)([S]C(N)=N[N+]2=Cc1c2ccccc2cc2ccccc12)[S]C(N)=N[N+]3=Cc1c2ccccc2cc2ccccc12", "assay": "absorbance titration", "setting": "concentration not given, band at 254 nm", "endpoint": "hypochromism", "result": "~15%"}
{"SMILES": "COC(=O)c1cnc(-c2cnccn2)cc1C(=O)OC.COC(=O)c1cnc(-c2cnccn2)cc1C(=O)OC.[Cl-].[Cl-].[Cl-].[Cl-].[Cu+2].[Cu+2]", "assay": "ethidium bromide displacement", "setting": "pH 7.4", "endpoint": "Stern-Volmer constant", "result": "1670 ± 10 M⁻¹"}
{"note": "Excerpt of the above:"}
{"SMILES": "CC1=[N+]2N=C(c3ccccc3)[O][Pd-2]2([Cl])[O+]=C2Oc3ccccc3C=C21 (stereo not shown)", "assay": "UV-visible absorption titration", "setting": "concentration not given, pH 7.2", "endpoint": "hypochromism", "result": "12.7%"}
